Measured values of several laboratories.
Every numbered part comes from another study and shows a few of its results, in no order.
Sequence of UniProt P08069 (whole entry, looked up): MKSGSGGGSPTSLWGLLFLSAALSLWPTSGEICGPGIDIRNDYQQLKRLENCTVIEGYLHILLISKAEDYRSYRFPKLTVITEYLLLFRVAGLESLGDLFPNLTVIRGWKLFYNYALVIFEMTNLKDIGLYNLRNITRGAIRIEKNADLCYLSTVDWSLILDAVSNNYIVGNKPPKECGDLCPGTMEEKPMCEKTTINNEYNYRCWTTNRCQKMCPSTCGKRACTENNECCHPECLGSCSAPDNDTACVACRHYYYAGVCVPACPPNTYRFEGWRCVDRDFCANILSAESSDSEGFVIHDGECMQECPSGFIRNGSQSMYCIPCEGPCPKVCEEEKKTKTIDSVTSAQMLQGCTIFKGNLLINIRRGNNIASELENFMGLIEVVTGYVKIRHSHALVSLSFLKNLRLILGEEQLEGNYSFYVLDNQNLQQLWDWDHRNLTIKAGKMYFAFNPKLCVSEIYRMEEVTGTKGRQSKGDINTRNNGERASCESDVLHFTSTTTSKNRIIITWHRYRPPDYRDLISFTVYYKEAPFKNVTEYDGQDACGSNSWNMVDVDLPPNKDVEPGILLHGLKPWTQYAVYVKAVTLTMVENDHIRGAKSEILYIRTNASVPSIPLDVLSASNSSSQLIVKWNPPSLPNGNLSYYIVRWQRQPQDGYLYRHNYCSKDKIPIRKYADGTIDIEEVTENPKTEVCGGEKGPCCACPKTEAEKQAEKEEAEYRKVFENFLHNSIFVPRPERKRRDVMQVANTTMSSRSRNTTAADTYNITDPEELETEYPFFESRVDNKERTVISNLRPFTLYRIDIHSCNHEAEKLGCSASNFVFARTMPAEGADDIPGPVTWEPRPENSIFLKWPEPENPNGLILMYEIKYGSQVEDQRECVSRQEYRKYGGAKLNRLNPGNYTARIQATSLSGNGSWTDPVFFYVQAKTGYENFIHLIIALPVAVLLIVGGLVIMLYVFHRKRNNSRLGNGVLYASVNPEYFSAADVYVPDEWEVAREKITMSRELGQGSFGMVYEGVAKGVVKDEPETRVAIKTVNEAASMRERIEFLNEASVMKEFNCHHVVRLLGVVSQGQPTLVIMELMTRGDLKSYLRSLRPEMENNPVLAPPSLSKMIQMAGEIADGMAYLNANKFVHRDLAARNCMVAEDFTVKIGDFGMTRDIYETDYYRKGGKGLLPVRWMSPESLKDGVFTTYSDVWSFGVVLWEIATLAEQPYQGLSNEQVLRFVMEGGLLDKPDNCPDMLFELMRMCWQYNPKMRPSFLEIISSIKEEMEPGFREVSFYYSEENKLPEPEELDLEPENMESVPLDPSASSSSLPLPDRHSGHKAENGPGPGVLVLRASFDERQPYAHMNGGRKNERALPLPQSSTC
Sequence of UniProt P42680 (whole entry, looked up): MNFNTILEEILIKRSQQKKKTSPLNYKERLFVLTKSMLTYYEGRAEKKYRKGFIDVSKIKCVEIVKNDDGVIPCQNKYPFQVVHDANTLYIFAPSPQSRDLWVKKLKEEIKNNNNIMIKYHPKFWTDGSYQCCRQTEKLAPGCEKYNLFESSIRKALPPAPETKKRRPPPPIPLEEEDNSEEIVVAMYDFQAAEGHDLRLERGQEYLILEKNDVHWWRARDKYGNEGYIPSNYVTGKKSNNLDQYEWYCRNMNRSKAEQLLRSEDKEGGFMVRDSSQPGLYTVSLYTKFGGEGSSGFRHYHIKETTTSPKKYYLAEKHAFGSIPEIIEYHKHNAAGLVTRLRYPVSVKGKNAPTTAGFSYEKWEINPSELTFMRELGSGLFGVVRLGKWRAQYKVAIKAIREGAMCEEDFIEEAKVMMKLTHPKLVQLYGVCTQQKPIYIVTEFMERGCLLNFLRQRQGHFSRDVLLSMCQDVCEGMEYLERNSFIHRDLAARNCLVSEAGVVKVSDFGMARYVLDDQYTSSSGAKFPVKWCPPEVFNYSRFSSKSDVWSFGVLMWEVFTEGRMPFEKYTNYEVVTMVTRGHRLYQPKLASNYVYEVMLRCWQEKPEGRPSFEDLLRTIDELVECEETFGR
Sequence of UniProt O43683 (whole entry, looked up): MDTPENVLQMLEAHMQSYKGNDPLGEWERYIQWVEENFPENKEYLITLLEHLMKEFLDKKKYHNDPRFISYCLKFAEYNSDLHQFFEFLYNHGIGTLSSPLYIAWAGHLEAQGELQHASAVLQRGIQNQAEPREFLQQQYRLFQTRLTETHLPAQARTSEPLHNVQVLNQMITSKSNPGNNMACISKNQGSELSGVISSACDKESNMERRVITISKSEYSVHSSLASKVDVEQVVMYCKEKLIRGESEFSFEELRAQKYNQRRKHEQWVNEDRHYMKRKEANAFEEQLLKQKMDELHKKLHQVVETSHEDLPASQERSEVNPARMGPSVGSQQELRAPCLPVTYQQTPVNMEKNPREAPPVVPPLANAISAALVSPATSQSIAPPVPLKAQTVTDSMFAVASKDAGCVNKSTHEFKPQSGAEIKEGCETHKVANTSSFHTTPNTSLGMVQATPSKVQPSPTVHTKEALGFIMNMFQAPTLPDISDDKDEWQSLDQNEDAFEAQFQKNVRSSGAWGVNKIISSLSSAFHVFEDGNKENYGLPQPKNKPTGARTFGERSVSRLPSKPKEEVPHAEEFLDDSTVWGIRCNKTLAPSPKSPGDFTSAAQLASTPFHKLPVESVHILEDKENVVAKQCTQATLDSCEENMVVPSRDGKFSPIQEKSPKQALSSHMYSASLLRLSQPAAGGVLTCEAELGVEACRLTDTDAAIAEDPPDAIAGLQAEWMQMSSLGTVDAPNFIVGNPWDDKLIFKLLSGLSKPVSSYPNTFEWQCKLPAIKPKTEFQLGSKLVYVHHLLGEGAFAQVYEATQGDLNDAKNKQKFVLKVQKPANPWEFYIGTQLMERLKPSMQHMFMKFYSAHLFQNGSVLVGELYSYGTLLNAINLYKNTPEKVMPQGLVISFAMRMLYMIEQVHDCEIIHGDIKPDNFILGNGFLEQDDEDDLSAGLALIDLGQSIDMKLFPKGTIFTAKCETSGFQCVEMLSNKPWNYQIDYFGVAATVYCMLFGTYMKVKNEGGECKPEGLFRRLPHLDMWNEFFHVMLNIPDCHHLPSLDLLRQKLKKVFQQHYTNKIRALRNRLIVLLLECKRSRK
Sequence of UniProt P15056 (whole entry, looked up): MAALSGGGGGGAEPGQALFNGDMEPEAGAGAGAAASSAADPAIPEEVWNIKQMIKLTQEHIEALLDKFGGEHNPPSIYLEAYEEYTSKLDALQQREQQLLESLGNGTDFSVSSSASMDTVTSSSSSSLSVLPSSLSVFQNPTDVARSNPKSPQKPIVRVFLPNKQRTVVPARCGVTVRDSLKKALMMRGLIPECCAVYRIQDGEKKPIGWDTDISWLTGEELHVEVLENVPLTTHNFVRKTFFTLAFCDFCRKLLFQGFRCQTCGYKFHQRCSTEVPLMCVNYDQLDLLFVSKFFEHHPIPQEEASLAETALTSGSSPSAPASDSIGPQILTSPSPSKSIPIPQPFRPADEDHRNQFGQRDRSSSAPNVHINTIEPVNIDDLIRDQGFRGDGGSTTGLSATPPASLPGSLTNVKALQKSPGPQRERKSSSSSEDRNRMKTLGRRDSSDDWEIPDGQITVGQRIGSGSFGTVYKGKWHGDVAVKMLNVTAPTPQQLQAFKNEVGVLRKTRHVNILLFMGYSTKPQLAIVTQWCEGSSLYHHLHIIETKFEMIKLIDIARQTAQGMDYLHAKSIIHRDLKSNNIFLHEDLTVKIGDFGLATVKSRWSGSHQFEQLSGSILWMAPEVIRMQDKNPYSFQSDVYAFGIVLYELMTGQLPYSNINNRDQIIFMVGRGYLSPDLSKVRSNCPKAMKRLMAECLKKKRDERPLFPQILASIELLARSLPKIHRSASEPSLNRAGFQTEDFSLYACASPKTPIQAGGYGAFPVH

Set 1
Target: Diamine acetyltransferase 1 (Homo sapiens, UniProt P21673)
Action: inhibitor
Concentration: 10 µM
Relative to: control
Residues (P21673 1-171): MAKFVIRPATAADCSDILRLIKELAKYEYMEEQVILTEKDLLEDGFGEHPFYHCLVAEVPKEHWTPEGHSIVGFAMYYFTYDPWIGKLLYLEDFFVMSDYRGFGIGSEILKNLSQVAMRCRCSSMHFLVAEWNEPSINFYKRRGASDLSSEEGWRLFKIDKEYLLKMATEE
C[C@@H]1CC[C@]2(C(=O)O)CC[C@]3(C)C(=CC[C@@H]4[C@@]5(C)C[C@@H](O)[C@H](O)C(C)(C)[C@@H]5CC[C@]43C)[C@@H]2[C@]1(C)O gave a remaining activity of 103%.
The remaining activity of O=C(/C=C/c1ccc(O)c(O)c1)O[C@@H](C(=O)O)[C@@H](O)C(=O)O is reported as 101%.
With CCCCCCCC/C=C\CCCCCCCCCCCC(=O)O the remaining activity was 89.1%.
OCCCc1ccc(O)cc1 gave a remaining activity of 104%.
With CCCCCC/C=C\CCCCCCCC(=O)O the remaining activity was 103%.
OC[C@H]1O[C@@H](Oc2ccc(O)cc2)[C@H](O)[C@@H](O)[C@@H]1O has a remaining activity of 91.8%.

Set 2
Structure (SMILES): COc1cccc(CNC(=O)c2nc3scc(COCc4ccc(C(=O)O)cc4)c3c(=O)[nH]2)c1
Effect on: cell-free assay
Technique: competition with immobilised ligand
Concentration: 1 µM
PI4KB (Homo sapiens, UniProt Q9UBF8) — remaining binding: 59.9%.
For DAPK1 (Homo sapiens, UniProt P53355): remaining binding read 100%.
For IGF1R (Homo sapiens, UniProt P08069): remaining binding read 100%.
BRAF (Homo sapiens, UniProt P15056) — remaining binding: 72.8%.
LIM domain kinase 1 (LIMK1, Homo sapiens, UniProt P53667) — remaining binding: 96.8%.
It gave 97.8% for remaining binding (MATK (Homo sapiens, UniProt P42679)).
The remaining binding was 70.2% (BUB1 (Homo sapiens, UniProt O43683)).

Set 3
Target: High affinity nerve growth factor receptor (NTRK1, Homo sapiens, UniProt P04629)
Sequence of UniProt P04629 (whole entry, looked up): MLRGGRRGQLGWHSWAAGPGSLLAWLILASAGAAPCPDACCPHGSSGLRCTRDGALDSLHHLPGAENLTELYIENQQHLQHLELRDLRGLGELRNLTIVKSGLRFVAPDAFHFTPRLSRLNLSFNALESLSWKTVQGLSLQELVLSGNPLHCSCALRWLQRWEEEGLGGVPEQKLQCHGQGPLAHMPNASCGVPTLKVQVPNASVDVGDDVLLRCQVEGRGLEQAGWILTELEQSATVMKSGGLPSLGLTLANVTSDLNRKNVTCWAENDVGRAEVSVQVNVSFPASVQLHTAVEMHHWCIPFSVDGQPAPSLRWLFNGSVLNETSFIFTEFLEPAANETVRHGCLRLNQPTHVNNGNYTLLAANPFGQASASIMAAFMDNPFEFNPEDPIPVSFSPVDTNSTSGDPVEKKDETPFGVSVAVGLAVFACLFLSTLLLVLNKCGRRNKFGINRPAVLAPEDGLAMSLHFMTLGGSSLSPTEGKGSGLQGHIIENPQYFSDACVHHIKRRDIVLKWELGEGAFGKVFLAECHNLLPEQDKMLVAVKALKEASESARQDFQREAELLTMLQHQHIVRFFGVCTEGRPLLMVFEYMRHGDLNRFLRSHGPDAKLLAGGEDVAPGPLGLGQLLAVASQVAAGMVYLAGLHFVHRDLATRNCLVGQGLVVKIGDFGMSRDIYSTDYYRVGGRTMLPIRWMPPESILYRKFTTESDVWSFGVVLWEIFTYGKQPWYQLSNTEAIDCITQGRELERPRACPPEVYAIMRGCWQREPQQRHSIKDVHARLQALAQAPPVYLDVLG
Effect on: enzyme activity
Action: inhibitor
Concentration: 0.5 µM
Relative to: control
With Oc1ccc(-c2nc(-c3ccncc3)c(-c3ccc(F)cc3)[nH]2)cc1 the remaining activity was 105%.
For COc1cc2nccc(Oc3ccc(NC(=S)NC(=O)c4ccccc4C)cc3)c2cc1OC, the remaining activity was 82.5%.
With OCC(O)CCON=C1C(c2c(O)[nH]c3ccccc23)=Nc2ccccc21 (stereo not shown) the remaining activity was 3.84%.
O=c1c2ccccc2[nH]c(=S)n1CCN1CCC(=C(c2ccc(F)cc2)c2ccc(F)cc2)CC1 has a remaining activity of 97%.
The remaining activity of Nc1ncnc2n[nH]c(Nc3ccc(F)cc3)c12 is reported as 109%.
For CCOC(=O)c1c(C)[nH]c(/C=C2\C(=O)Nc3ccccc32)c1C, the remaining activity was 69.9%.
With Cn1sc(=O)n(Cc2ccccc2)c1=O the remaining activity was 99.3%.
With COc1ccc(OC)c2c(=S)c3ccccc3[nH]c12 the remaining activity was 87.5%.
For CO[C@H]1C[C@@H]2CC[C@@H](C)[C@@](O)(O2)C(=O)C(=O)N2CCCC[C@H]2C(=O)O[C@H]([C@H](C)C[C@@H]2CC[C@@H](O)[C@H](OC)C2)CC(=O)[C@H](C)/C=C(\C)[C@@H](O)[C@@H](OC)C(=O)[C@H](C)C[C@H](C)/C=C/C=C/C=C/1C, the remaining activity was 98.4%.
For Nc1[nH]nc2nc3ccccc3nc12, the remaining activity was 88.3%.
COc1cc2ncnc(Nc3ccc(Oc4ccccc4)cc3)c2cc1OC has a remaining activity of 101%.
For Cc1nc(-c2ccccc2)c(-c2ccncc2)o1, the remaining activity was 94.3%.
For Cc1ccc(Nc2nccc(N(C)c3ccc4c(C)n(C)nc4c3)n2)cc1S(N)(=O)=O, the remaining activity was 91.8%.
With NCCNc1ncc(C(N)=O)c(Nc2cccc(C(F)(F)F)c2)n1 the remaining activity was 84.2%.
Nc1ccc2ncnc(NCCc3ccc(Oc4ccccc4)cc3)c2c1 gave a remaining activity of 108%.

Set 4
SMILES: CC(C)S(=O)(=O)c1ccc2nccc(Nc3ccc4sc(C5CCCC5)nc4c3)c2c1.Cl
Effect on: kinase activity
Action: inhibitor
Concentration: 1 µM
For HIPK3 (Homo sapiens, UniProt Q9H422): remaining activity read 104%.
For TTBK1 (Homo sapiens, UniProt Q5TCY1): remaining activity read 101%.
DDR1 (Homo sapiens, UniProt Q08345) — remaining activity: 83%.
TEC (Homo sapiens, UniProt P42680) — remaining activity: 102%.
The remaining activity was 103% (PRKCG (Homo sapiens, UniProt P05129)).
The remaining activity was 99% (TRPM7 (Homo sapiens, UniProt Q96QT4)).
